Experimental data gathered from unrelated publications.
Every numbered part comes from another study and shows a few of its results, in no order. “And” joins repeats or separate records; there may be more than shown.
Sequence of UniProt Q9Y2I7 (whole entry, looked up): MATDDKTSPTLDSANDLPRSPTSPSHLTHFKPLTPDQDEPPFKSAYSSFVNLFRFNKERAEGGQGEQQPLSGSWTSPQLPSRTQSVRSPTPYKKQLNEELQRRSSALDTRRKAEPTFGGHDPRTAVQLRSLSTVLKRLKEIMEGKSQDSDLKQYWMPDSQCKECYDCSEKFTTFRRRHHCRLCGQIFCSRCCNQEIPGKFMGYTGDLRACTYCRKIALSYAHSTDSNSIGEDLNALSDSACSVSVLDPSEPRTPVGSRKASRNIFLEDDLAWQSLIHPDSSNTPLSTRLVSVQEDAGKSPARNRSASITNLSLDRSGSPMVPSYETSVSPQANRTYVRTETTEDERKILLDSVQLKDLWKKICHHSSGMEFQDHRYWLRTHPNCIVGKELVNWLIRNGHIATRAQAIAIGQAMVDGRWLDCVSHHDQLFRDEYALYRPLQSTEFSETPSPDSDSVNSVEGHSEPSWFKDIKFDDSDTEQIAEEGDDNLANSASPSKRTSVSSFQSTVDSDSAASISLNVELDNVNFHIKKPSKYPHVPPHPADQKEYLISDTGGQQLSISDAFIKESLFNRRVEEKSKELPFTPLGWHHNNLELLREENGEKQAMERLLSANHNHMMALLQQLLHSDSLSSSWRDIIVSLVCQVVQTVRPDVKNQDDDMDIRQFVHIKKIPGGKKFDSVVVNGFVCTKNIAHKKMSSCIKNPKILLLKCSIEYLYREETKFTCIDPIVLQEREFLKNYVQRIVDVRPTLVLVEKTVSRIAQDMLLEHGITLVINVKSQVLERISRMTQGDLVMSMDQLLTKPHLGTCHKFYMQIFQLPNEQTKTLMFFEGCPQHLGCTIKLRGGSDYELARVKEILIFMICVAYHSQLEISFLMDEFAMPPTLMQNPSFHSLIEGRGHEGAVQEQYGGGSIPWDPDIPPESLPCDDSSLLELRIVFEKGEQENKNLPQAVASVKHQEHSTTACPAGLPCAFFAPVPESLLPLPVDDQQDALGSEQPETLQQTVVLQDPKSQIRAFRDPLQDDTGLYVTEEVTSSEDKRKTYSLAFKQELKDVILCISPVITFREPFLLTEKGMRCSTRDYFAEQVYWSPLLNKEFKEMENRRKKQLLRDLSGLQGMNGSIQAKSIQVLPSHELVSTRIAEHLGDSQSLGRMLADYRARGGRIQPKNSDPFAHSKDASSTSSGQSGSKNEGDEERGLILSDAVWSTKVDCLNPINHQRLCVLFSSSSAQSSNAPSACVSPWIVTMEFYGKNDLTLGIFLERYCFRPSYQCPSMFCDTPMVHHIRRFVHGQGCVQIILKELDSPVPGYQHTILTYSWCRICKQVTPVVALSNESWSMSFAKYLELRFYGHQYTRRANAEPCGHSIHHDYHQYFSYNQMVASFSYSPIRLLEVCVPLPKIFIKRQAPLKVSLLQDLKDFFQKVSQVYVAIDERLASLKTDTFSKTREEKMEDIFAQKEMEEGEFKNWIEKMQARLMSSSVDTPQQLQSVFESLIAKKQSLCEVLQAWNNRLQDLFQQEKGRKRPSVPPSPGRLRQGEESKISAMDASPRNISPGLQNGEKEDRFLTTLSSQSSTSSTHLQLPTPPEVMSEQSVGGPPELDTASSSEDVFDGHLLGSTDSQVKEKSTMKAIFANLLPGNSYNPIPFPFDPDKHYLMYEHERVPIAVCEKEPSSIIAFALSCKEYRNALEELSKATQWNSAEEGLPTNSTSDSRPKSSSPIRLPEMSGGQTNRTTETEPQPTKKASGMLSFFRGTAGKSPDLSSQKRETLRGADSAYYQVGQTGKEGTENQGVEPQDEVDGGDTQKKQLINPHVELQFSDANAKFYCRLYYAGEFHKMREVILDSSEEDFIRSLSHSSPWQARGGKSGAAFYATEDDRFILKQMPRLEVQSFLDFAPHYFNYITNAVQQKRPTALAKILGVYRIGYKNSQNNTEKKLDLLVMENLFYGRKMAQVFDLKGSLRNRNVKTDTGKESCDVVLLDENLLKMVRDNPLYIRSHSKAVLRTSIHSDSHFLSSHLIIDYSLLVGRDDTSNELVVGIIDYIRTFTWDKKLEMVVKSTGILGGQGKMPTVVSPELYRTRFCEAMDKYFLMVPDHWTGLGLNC
Sequence of UniProt Q13464 (whole entry, looked up): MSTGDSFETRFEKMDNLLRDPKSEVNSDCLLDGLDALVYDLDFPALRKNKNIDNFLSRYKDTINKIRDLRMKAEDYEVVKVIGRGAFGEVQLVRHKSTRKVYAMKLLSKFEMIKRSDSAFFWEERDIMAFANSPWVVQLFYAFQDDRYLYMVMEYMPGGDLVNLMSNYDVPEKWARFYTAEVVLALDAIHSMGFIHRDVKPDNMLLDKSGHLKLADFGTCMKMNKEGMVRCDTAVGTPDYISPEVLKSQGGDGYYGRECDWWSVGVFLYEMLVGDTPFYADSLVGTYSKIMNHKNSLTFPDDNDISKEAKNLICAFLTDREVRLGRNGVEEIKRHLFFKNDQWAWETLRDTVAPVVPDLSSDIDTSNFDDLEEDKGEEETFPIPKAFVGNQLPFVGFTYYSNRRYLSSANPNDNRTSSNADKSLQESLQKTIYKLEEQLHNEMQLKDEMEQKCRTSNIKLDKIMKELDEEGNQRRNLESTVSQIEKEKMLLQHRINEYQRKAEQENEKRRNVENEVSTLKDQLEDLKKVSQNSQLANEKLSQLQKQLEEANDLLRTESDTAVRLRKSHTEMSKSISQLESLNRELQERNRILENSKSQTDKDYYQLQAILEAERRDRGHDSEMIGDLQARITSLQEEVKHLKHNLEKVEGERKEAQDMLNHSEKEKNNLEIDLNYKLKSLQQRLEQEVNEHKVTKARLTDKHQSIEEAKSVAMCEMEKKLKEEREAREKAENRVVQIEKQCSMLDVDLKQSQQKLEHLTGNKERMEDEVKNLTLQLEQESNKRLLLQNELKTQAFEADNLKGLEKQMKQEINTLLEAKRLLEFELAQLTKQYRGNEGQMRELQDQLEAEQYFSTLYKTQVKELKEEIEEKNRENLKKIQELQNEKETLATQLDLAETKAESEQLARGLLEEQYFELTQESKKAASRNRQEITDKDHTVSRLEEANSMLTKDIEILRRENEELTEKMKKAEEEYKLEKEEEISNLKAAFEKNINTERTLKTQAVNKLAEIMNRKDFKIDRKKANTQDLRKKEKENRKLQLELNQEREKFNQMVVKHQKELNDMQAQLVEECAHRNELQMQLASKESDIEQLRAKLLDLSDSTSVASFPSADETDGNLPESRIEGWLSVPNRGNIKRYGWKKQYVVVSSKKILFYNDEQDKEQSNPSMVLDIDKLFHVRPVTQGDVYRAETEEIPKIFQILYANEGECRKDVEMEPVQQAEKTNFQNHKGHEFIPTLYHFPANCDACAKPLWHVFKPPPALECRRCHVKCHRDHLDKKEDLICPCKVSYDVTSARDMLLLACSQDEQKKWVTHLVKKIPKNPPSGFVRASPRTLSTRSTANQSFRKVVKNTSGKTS
Sequence of UniProt Q13043 (whole entry, looked up): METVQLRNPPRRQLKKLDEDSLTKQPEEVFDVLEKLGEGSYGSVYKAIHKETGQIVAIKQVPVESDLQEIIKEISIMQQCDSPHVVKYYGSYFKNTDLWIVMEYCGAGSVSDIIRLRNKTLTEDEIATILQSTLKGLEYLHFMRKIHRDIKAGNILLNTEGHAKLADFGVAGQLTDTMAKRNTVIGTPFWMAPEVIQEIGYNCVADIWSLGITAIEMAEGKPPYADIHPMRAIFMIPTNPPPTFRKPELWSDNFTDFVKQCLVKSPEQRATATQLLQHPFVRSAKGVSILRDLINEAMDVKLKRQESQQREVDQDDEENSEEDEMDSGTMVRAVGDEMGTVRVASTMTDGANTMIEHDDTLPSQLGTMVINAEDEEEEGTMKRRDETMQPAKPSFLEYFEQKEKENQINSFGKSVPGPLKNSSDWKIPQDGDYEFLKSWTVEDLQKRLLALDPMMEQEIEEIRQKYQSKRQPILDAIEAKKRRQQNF

Series 1 — host: human; matrix: microsomes or S9; tested at: 2 µM; time: 0.5 h
SMILES | remaining compound [%]
CC(C)CCN(C)C1CCN(S(=O)(=O)c2ccc(C(C)(C)C)cc2)CC1 | 54.2
Cc1ccc(S(=O)(=O)N[C@@H]2c3c(Cl)cccc3[C@H](C(=O)OC(C)C)[C@H]2C(=O)OC(C)C)cc1 | < 1
CCn1nc(C)c(C2CC(=O)Nc3nc(N4CCCCC4)nc(O)c32)c1C (stereo not shown) | > 99.9
COc1ccc(-c2c(-c3ccccc3)nn(-c3ccccc3OC)c2N)cc1OC | 68.3

Series 2 — read-out: enzyme activity; mode: inhibitor; tested at: 0.5 µM; relative to: control
Target: Receptor-type tyrosine-protein kinase FLT3 (FLT3, Homo sapiens, UniProt P36888)
Structure (SMILES) | remaining activity
CCN1/C(=C/C(C)=O)Sc2ccc(OC)cc21 | 76.1%
CC(C)[C@H](CO)Nc1nc(Nc2cccc(Cl)c2)c2ncn(C(C)C)c2n1 | 16.4%
COc1cc2ncnc(N3CCN(C(=O)Nc4ccc(Oc5ccccc5)cc4)CC3)c2cc1OC | 43.2%
COc1cc2ncc(-c3ccccc3)nc2cc1OC | 65.9%

Series 3 — read-out: cell-free assay; technique: competition with immobilised ligand; tested at: 1 µM
SMILES: C[C@@]1(Cc2ccc(C#N)cc2)C(=O)N(c2cc(Cl)cc(Cl)c2)c2ncc(C(=O)NC3(c4nc(C5CCC5)no4)CC3)n21
target | remaining binding
Homeodomain-interacting protein kinase 1 (HIPK1, Homo sapiens, UniProt Q86Z02) | 100%
Cytoplasmic tyrosine-protein kinase BMX (BMX, Homo sapiens, UniProt P51813) | 40%
1-phosphatidylinositol 3-phosphate 5-kinase (PIKFYVE, Homo sapiens, UniProt Q9Y2I7) | 100%
Serine/threonine-protein kinase 4 (STK4, Homo sapiens, UniProt Q13043) | 92%
Ribosomal protein S6 kinase alpha-2, C-terminal kinase domain (RPS6KA2, Homo sapiens, UniProt Q15349) | 99%
Non-receptor tyrosine-protein kinase TNK1 (TNK1, Homo sapiens, UniProt Q13470) | 93%
TRAF2 and NCK-interacting protein kinase (TNIK, Homo sapiens, UniProt Q9UKE5) | 100%
Phosphatidylinositol 4-phosphate 3-kinase C2 domain-containing subunit beta (PIK3C2B, Homo sapiens, UniProt O00750) | 100%
Serine/threonine-protein kinase 3 (STK3, Homo sapiens, UniProt Q13188) | 100%
Rho-associated protein kinase 1 (ROCK1, Homo sapiens, UniProt Q13464) | 100%
Epidermal growth factor receptor (EGFR, Homo sapiens, UniProt P00533, del752-759) | 100%

Single results of other studies
SMILES | system | setting | endpoint | value
CC(C)n1cnc(-c2ccc(F)cc2)c1-c1ncc(C(=O)Nc2ccc(N3CCN(C)CC3)cc2)[nH]1 | human, idiopathic pulmonary fibrosis | 60 mg once daily, trial, treatment-emergent | patients with ventricular extrasystoles | 0%
O=C1CCC(N2Cc3cc(C4CCN(Cc5ccccc5)CC4)ccc3C2=O)C(=O)N1 (stereo not shown) | ICR mice, male, plasma | intravenous, 1.0 mg/kg | steady-state volume of distribution | 9.76 L/kg and 9.16 L/kg
COc1ccc(-c2c(Nc3ccccn3)[nH]c3c(C4=CCCCC4)c(-c4ccccc4)nn3c2=O)cc1 | human, plasma | oral, 50 mg once daily | Vz/F | 94400 mL

A few entries again (series 3):
target | remaining binding
Phosphatidylinositol 4-phosphate 3-kinase C2 domain-containing subunit beta (PIK3C2B, Homo sapiens, UniProt O00750) | 100%
Serine/threonine-protein kinase 3 (STK3, Homo sapiens, UniProt Q13188) | 100%
Rho-associated protein kinase 1 (ROCK1, Homo sapiens, UniProt Q13464) | 100%
